Published values pooled from the literature.
Compare with care: the assays were run in different laboratories. Values joined by “and” are separate records of one study, mostly repeats; a detail may differ. ± gives the spread as reported.
USP20 ZnF-UBD domain: Ubiquitin carboxyl-terminal hydrolase 20, ZnF-UBD domain (USP20, Homo sapiens, UniProt Q9Y2K6)
TLR7: Toll-like receptor 7 (TLR7, Homo sapiens, UniProt Q9NYK1)
ZBTB11/CRBN: ZBTB11/CRBN (Homo sapiens, UniProt O95625+Q96SW2)
T1: riboswitch RNA yjdF aptamer (Bacillus subtilis); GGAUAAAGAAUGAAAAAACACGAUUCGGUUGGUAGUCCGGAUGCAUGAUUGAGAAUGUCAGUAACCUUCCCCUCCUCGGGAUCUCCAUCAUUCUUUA

SMILES | target | test | test system | setting | how to read | quantity | result
O=c1nc(SCc2cc(F)cc(C(F)(F)F)c2)nc(SCc2csc3ccc(Cl)cc23)[nH]1 | TOP2B (Homo sapiens, UniProt Q02880) | decatenation |  | 1.95 µM |  | mean decatenated DNA | 100%
Nc1ncnc2c1ncn2[C@@H]1O[C@H](COP(=O)(O)CP(=O)(O)OP(=O)(O)O)[C@@H](O)[C@H]1O | P2X purinoceptor 1 (P2RX1, Homo sapiens, UniProt P51575, R139A) | saturation binding | HEK293 | 25 nM |  | specific binding | 1380 CCPM and 1120 CCPM
CSc1nc(C)c(CCC(=O)O)c(=O)[nH]1 | USP20 ZnF-UBD domain |  |  |  |  | Kd | 814 µM
C=C1C(=O)O[C@@H]2C[C@@]3(C)CCCC(=C)[C@@H]3C[C@H]12 | NR5A2 (Homo sapiens, UniProt O00482) | reporter gene, Gal4 hybrid reporter |  | 10 µM | relative to: vehicle | activation | 0.7 fold
C#Cc1cc(-c2cc(Nc3nc(N[C@@H](C)c4ccc(F)cn4)ncc3Cl)n[nH]2)ccc1C=O | KIT (Homo sapiens, UniProt P10721, T670I) | enzyme activity, inhibitor |  | 0.2 µM |  | inhibition | 23.8%
CCCCc1nc2c(o1)c(N)nc1ccccc12 | TLR7 | reporter gene, agonist, NF-κB reporter | HEK-Blue TLR7 |  |  | EC50 | inactive
N#Cc1ccc2c(-c3ccncc3)c(-c3ccc(F)cc3)nn2c1 | GAK (Homo sapiens, UniProt O14976) | NanoBRET | HEK293 | 1.0 µM |  | receptor occupancy | 40 to 70%
O=C(COP(=O)(O)O)[C@@H](O)[C@H](O)[C@H](O)COP(=O)(O)O | PNPT1 (Homo sapiens, UniProt Q8TCS8) | thermal proteome profiling | HepG2 cell lysate | concentration not given, 57 over 37 °C, mean | relative to: compound over control | thermal stability ratio | 0.562
O=C1CCC(N2C(=O)C=C(Nc3cccc(C4CCN(CCc5ccc(C(F)(F)F)c(Cl)c5)CC4)c3)C2=O)C(=O)N1 (stereo not shown) | ZBTB11/CRBN | protein degradation, degrader, HiBiT luminescence | MOLT-4 |  |  | Dmax | 34%
C=CC(=O)N1CCC(COCC(=O)N2CCN(c3nc(-c4cnc(N)nc4C(F)F)nc(N4CCOC[C@@H]4C)n3)CC2)CC1 | KIT (Homo sapiens, UniProt P10721, L576P) | KINOMEscan |  | 1 µM |  | remaining binding | 82%
[O-][S+]1CCCCS1 (stereo not shown) | SOD1 (Homo sapiens, UniProt P00441, G94A) | target engagement | SOD1 G93A transgenic mice, blood | subcutaneous, 30 mg/kg twice daily |  | SOD1 dimer level | 85.4% and 85.8%
CN1CCN(C(=O)c2cccc(-c3nc(N)nc(-c4ccccc4O)n3)c2)CC1 | human adenosine A2A receptor Y271A | biophysical mapping |  | concentration not given | relative to: wild type | pKD change | -0.1
O=C(CCCCCCC(=O)Nc1ccccc1)NO | HDAC8 (Homo sapiens, UniProt Q9BY41) | ITC | Tris-HCl buffer | concentration not given, 288 K |  | binding stoichiometry | 0.9
c1ccc(C(NCc2cccnc2)(c2ccccc2)c2ccccc2)cc1 | KCNQ1 (Homo sapiens, UniProt P51787) | ion current, inhibitor, whole-cell patch clamp | tsA201 | current at end of depolarization, no correction |  | Hill coefficient | 0.64
Cc1nc(CSc2nc(SCc3ccc(C(C)C)cc3)nc(=O)[nH]2)cs1 | TOP2A (Homo sapiens, UniProt P11388) | DNA relaxation |  | 500 µM, replicate 1 |  | relaxed DNA | 0.5%
O=C(COP(=O)(O)O)[C@@H](O)[C@H](O)[C@H](O)COP(=O)(O)O | Pyruvate kinase PKM (PKM, Homo sapiens, UniProt P14618) | pyruvate kinase activity, activator | MGC-803 cell lysate | together with: AIM |  | minimum concentration, maximal activation | 1620 ± 612 nM
CC(=O)c1c(C)c2cnc(Nc3ccc(N4CCN(CCCOc5ccc(CN6CCC(c7ccc8c(c7)CN(C7CCC(=O)NC7=O)C8=O)CC6)cc5)CC4)cn3)nc2n(C2CCCC2)c1=O (stereo not shown) | CDK4 (Homo sapiens, UniProt P11802) | protein degradation, degrader, immunoblot | Jurkat | 4 h |  | Dmax | 45%

SMILES | target | test | test system | setting | how to read | quantity | result
COc1cc(Nc2ncc3c(n2)-c2ccc(Cl)cc2C(c2c(F)cccc2OC)=NC3)ccc1C(=O)O | STK25 | kinase activity |  | 1 µM |  | remaining activity | 96%
CCCCc1nc2c(N)nc3ccccc3c2n1Cc1cccc2ccccc12 | TLR7 | reporter gene, agonist | human cells | concentration not given |  | agonist activity | inactive
COc1cc(F)ccc1-c1ncnc(Nc2cccc(C[S@](C)(=N)=O)c2)n1 | FLT1 (Homo sapiens, UniProt P17948) | kinase activity |  | 10 µM, together with: 10 µM ATP |  | remaining activity | 67%
O=C(O)Cc1cccc2cccnc12 | USP20 ZnF-UBD domain |  |  |  |  | Kd | > 1000 µM
N#Cc1ccc2[nH]cc(CCCCN3CCN(c4ccc5oc(C(N)=O)cc5c4)CC3)c2c1 | SLC6A4 (Homo sapiens, UniProt P31645) | serotonin uptake, inhibitor | COS-7 expressing SLC6A4 | together with: [3H]5-HT |  | Hill coefficient | 1.42 and 1.4
CCNC(=O)/C=C/c1cccc(Br)c1 | SLC6A19 (Homo sapiens, UniProt Q695T7) | inhibitor, FLIPR membrane potential | CHO-BC cells | 1 µM, unit not given | relative to: no inhibitor | remaining transport activity | 0.474
[H]/N=C(/N)NCC(=O)O | SLC6A6 (Homo sapiens, UniProt P31641, G62A) | binding, microscale thermophoresis |  | 488 nM, room temperature, together with: 50 nM labelled protein | higher = more binding | normalised MST signal | -0.0599
CC[C@@H]1[C@H](F)C(=O)N[C@@H]1COc1nccc2cc(C(N)=O)c(OC)cc12 | CSNK1G2 (Homo sapiens, UniProt P78368) | ATP-site probe binding, ActivX profiling | THP-1 cell lysate | 0.04 mM, Lys2 site |  | inhibition | 27.3%
CC(=O)N[C@H](C(=O)N1C[C@H](O)C[C@H]1C(=O)NCc1ccc(-c2scnc2C)cc1)C(C)(C)SCCCCCCNC(=O)C[C@@H]1N=C(c2ccc(Cl)cc2)c2c(sc(C)c2C)-n2c(C)nnc21 | BRD4/VHL, BD2; with elongins B/C (Homo sapiens, UniProt O60885+P40337, A384K/E383V/K378Q) | ITC |  | 25 °C, BRD4 BD2 mutant, ternary |  | ΔH | -6.2 ± 0.9 kcal/mol
NC(=O)c1ccc[n+]([C@@H]2O[C@H](COP(=O)([O-])OP(=O)(O)OC[C@H]3O[C@@H](n4cnc5c(NCCNC(=O)CCCCCNC(=O)CCCCCNC(=O)CCCC[C@@H]6SC[C@@H]7NC(=O)N[C@@H]76)ncnc54)[C@H](O)[C@@H]3O)[C@@H](O)[C@H]2O)c1 | PARP15 (Homo sapiens, UniProt Q460N3) | substrate, DELFIA auto-modification |  |  |  | apparent Km | 1 µM
CC(C)CC[C@@H](O)[C@@H](C)[C@H]1CC[C@H]2[C@@H]3CC=C4C[C@@H](O)CC[C@]4(C)[C@H]3CC[C@]12C | CYP11A1 (Homo sapiens, UniProt P05108) | substrate binding |  | together with: adrenodoxin 40-fold excess | relative to: without adrenodoxin | Kd decrease | 2.1 fold and 2 fold
O=C(O)c1ccc(OCCCc2ccc(OCCCCOC3CCCCC3)cc2)c(C(=O)NC2CCCC(C(=O)O)C2)c1 (stereo not shown) | CYSLTR2 (Homo sapiens, UniProt Q9NS75) | antagonist, NanoBiT |  | 5 µM, together with: LTC4 or LTD4 |  | GRK recruitment | inhibited
Cc1cc2nc3[nH]c(=O)[nH]c(=O)c3nc2cc1C | T1, riboswitch RNA yjdF aptamer (Bacillus subtilis) | fluorescence titration |  | together with: 380 nM lumichrome |  | Kd | 0.05 µM
Nc1nc2c(ncn2[C@@H]2O[C@H](COP(=O)(O)O)[C@@H](O)[C@H]2O)c(=O)[nH]1 | GUK1 (Homo sapiens, UniProt Q16774) | enzyme activity, NADH-coupled |  | 125 µM, together with: KCl 10 mM |  | reaction velocity | 0.0888 µM/s and 0.101 µM/s and 0.094 µM/s
CN1CCC(CNc2ccc3ncc(-c4cccc(OC(F)(F)F)c4)n3n2)CC1 | HTR1B (Homo sapiens, UniProt P28222) | cAMP, agonist |  | 10 µM | relative to: control | activation | > 50%
Nc1ncnc2c1ncn2[C@@H]1O[C@H](CSCC[C@H](N)C(=O)O)[C@@H](O)[C@H]1O | O-methyltransferase (Sorghum bicolor, UniProt A0A1B6PFV1) | isothermal titration calorimetry |  | concentration not given, apo protein |  | binding stoichiometry | 0.89 ± 0.059 sites
CCC(C)(NCCc1ccc(Cl)c(C(F)(F)F)c1)c1cccc(NC2=CC(=O)N(C3CCC(=O)NC3=O)C2=O)c1 (stereo not shown) | ZBTB11/CRBN | protein degradation, degrader, HiBiT luminescence | MOLT-4 |  |  | Dmax | 71%

A few entries again:
SMILES | target | test | test system | setting | how to read | quantity | result
COc1cc(F)ccc1-c1ncnc(Nc2cccc(C[S@](C)(=N)=O)c2)n1 | FLT1 (Homo sapiens, UniProt P17948) | kinase activity |  | 10 µM, together with: 10 µM ATP |  | remaining activity | 67%
O=C(O)Cc1cccc2cccnc12 | USP20 ZnF-UBD domain |  |  |  |  | Kd | > 1000 µM
N#Cc1ccc2[nH]cc(CCCCN3CCN(c4ccc5oc(C(N)=O)cc5c4)CC3)c2c1 | SLC6A4 (Homo sapiens, UniProt P31645) | serotonin uptake, inhibitor | COS-7 expressing SLC6A4 | together with: [3H]5-HT |  | Hill coefficient | 1.42 and 1.4
CCNC(=O)/C=C/c1cccc(Br)c1 | SLC6A19 (Homo sapiens, UniProt Q695T7) | inhibitor, FLIPR membrane potential | CHO-BC cells | 1 µM, unit not given | relative to: no inhibitor | remaining transport activity | 0.474
[H]/N=C(/N)NCC(=O)O | SLC6A6 (Homo sapiens, UniProt P31641, G62A) | binding, microscale thermophoresis |  | 488 nM, room temperature, together with: 50 nM labelled protein | higher = more binding | normalised MST signal | -0.0599
